{"data": "Measurements collected from several papers", "cell line": "UO-31", "note": "Each line is one published result; not all experiments were run side by side. “And” joins repeats or separate records; there may be more than shown."}
{"SMILES": "CCOC(=O)CSc1nc(-c2ccc(Cl)cc2)c2c(NC(=O)c3ccccc3)nnc-2[nH]1", "assay": "SRB", "setting": "10 µM, NCI60 single-dose screen", "scale": "reference: untreated", "quantity": "cell growth", "value": "83.9%"}
{"SMILES": "CCCCN1CCN(c2ccc3[nH]c(-c4ccc5[nH]c(-c6ccc(OCC)cc6)nc5c4)nc3c2)CC1", "assay": "SRB", "setting": "10 µM, 48 h", "quantity": "growth percent", "value": "100%"}
{"SMILES": "NNc1nc(-c2ccc(Cl)cc2)c2c(NC(=O)c3ccccc3)nnc-2[nH]1", "assay": "SRB", "setting": "10 µM, NCI60 single-dose screen", "scale": "reference: untreated", "quantity": "cell growth", "value": "88%"}
{"SMILES": "CCCN1CCN(c2ccc3[nH]c(-c4ccc5[nH]c(-c6cc(OC)c(OC)c(OC)c6)nc5c4)nc3c2)CC1", "assay": "SRB", "setting": "10 µM, 48 h", "quantity": "growth percent", "value": "86.5%"}
{"SMILES": "O=c1ccn(Cc2cn(-c3cc4ccccc4oc3=O)nn2)c(=O)[nH]1", "assay": "NCI60 single-dose screen", "setting": "10 µM", "quantity": "growth percentage", "value": "83.1%"}
{"SMILES": "CCCN1CCN(c2ccc3nc(-c4ccc5nc(-c6cc(OC)ccc6OC)[nH]c5c4)[nH]c3c2)CC1", "assay": "SRB", "setting": "10 µM, 48 h", "quantity": "growth percent", "value": "85.7%"}
{"SMILES": "O=C1NCCc2[nH]c(-c3ccncc3)cc21", "assay": "MTS", "setting": "NCI60 panel", "quantity": "IC50", "value": "4.03 µM"}
{"SMILES": "C#C[C@@]1(O)[C@@H](CO)O[C@@H](n2ccc3c(N)ncnc32)[C@@H]1O", "assay": "SRB", "setting": "NCI-60 screen", "quantity": "TGI", "value": "3.58 µM"}
{"SMILES": "CCOc1ccc(-c2nc3cc(-c4nc5cc(N6CCN(C)CC6)ccc5[nH]4)ccc3[nH]2)cc1OCC", "assay": "SRB", "setting": "10 µM, 48 h", "quantity": "growth percent", "value": "98.6%"}
{"SMILES": "C#C[C@@]1(O)[C@@H](CO)O[C@@H](n2cc(I)c3c(N)ncnc32)[C@@H]1O", "assay": "SRB", "setting": "NCI-60 screen", "quantity": "TGI", "value": "3.3 µM and 3.07 µM"}
{"SMILES": "Cc1cc(=O)[nH]c(=O)n1Cc1cn(-c2c3ccccc3nc3ccccc23)nn1", "assay": "NCI60 single-dose screen", "setting": "10 µM", "quantity": "growth percentage", "value": "82.6%"}
{"SMILES": "Cn1cncc1C1=CN(c2ncnc3[nH]cnc23)CCS1", "setting": "renal cancer", "quantity": "GI50", "value": "22.4 µM"}
{"SMILES": "Cc1cc(-c2ccccc2)n(-c2nc(-c3ccc(Cl)cc3)c3c(NC(=O)c4ccccc4)nnc-3[nH]2)n1", "assay": "SRB", "setting": "10 µM, NCI60 single-dose screen", "scale": "reference: untreated", "quantity": "cell growth", "value": "80.2%"}
{"SMILES": "CCCN1CCN(c2ccc3[nH]c(-c4ccc5[nH]c(-c6ccc(OCC)c(OCC)c6)nc5c4)nc3c2)CC1", "assay": "SRB", "setting": "10 µM, 48 h", "quantity": "growth percent", "value": "47.2%"}
{"SMILES": "Cc1cc(=O)[nH]c(=O)n1Cc1cn(-c2cc3ccccc3oc2=O)nn1", "assay": "NCI60 single-dose screen", "setting": "10 µM", "quantity": "growth percentage", "value": "85.3%"}
{"SMILES": "Cc1cc(C)n(C(=S)[S][Au][PH](CCCCCC[PH]([Au][S]C(=S)n2nc(C)cc2C)(c2ccccc2)c2ccccc2)(c2ccccc2)c2ccccc2)n1", "assay": "cell growth, NCI-60 screen", "setting": "renal cancer", "quantity": "log10 TGI", "value": "> -4"}
{"SMILES": "O=C(Nc1nnc2[nH]c(=S)[nH]c(-c3ccc(Cl)cc3)c1-2)c1ccccc1", "assay": "SRB", "setting": "10 µM, NCI60 single-dose screen", "scale": "reference: untreated", "quantity": "cell growth", "value": "90.5%"}
{"SMILES": "O=c1ccn(Cc2cn(-c3c4ccccc4nc4ccccc34)nn2)c(=O)[nH]1", "assay": "NCI60 single-dose screen", "setting": "10 µM", "quantity": "growth percentage", "value": "88%"}
{"SMILES": "O=C(Nc1nnc2n3c(=S)[nH][nH]c3nc(-c3ccc(Cl)cc3)c1-2)c1ccccc1", "assay": "SRB", "setting": "10 µM, NCI60 single-dose screen", "scale": "reference: untreated", "quantity": "cell growth", "value": "91.3%"}
{"SMILES": "CN1CCN(c2ccc3[nH]c(-c4ccc5[nH]c(-c6ccc(C(F)(F)F)cc6)nc5c4)nc3c2)CC1", "assay": "SRB", "setting": "10 µM, 48 h", "quantity": "growth percent", "value": "105%"}
